Assay results pooled from the literature.
Each numbered part is a random draw from the data of one study; scales do not carry over between parts. Changes are numbered by the printed parent chain.

Set 1
Target: UDP-N-acetylglucosamine--peptide N-acetylglucosaminyltransferase 110 kDa subunit (OGT, Homo sapiens, UniProt O15294)
UniProt O15294, sequence (whole entry, looked up): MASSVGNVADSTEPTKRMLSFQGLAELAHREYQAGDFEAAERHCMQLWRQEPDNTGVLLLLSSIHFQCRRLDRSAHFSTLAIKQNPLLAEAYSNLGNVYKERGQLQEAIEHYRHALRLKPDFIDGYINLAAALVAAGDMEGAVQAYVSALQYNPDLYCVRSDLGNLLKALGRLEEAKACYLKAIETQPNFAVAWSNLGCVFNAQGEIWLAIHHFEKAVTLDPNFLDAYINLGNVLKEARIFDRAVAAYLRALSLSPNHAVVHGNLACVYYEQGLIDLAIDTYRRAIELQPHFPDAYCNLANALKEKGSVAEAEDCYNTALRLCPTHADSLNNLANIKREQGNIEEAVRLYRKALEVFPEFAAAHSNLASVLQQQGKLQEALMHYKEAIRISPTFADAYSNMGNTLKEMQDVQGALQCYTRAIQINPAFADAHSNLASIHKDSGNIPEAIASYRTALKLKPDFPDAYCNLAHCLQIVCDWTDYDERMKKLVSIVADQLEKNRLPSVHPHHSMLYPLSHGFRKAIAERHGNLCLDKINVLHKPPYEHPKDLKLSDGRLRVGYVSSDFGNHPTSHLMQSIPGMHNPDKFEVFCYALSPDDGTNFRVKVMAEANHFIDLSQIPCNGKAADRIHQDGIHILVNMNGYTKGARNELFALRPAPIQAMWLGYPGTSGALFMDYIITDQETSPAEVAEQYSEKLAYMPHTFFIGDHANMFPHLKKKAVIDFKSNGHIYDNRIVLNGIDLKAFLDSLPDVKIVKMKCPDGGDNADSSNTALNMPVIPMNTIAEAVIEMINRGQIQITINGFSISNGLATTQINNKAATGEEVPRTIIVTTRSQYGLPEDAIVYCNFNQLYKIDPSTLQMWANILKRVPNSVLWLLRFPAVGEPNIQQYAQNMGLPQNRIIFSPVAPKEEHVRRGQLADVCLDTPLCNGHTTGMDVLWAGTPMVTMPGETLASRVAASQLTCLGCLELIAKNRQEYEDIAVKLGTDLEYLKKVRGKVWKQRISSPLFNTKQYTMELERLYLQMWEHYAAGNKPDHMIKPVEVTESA
Read-out: binding
Technique: phage display NGS
Molecule type: peptide
Baseline: input library
Quantity: minimum log2 enrichment ratio
YDHQRVAMLHNIHRV: 1.68
DEGLFLPFYDITPSF: 2.62
NHTHMHRHPKDHQRE: 2.32
HIQHYHHDIQYTRDL: 2.71
WTGIHHPWSVPHGRP: 2.89
FNHRNHHEPHRHHNA: 2.96
HFTREPPTHHHKLQE: 3.13
SWQPYQHHIWRMTYP: 2.31

Set 2
Target: CCNB3, cyclin fold, Cln2 fusion (human)
Technique: yeast growth competition, sequencing
Matrix: yeast
Setting: strong parent motif
Baseline: not given
Direction: higher = stronger binding
Quantity: normalised enrichment score
Starting sequence: viral docking peptide; KGVKRKLFAEDSS; partner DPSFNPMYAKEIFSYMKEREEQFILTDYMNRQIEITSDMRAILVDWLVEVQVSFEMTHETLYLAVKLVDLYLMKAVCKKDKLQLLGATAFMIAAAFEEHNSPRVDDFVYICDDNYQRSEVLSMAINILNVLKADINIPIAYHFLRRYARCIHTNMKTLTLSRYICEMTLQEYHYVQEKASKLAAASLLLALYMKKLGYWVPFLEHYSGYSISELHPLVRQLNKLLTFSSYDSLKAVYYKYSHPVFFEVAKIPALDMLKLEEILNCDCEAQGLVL
S13A: 2.33
E10R: 0.806
L7C: 0.176
V3K: -0.219
L7W: -0.237
R5L: 0.228
G2Y: 2.12
G2W: 1.67

Set 3
Target: inorganic phosphate, free oxyanion
Technique: microfluidic competitive inhibition
Matrix: in vitro, cell-free expressed
Tested at: not given
Setting: derived from inhibition constants, unchanged parent 615000 nM
Direction: lower = stronger binding
Quantity: phosphate dissociation constant
Starting sequence: PafA, mature enzyme, eGFP fusion (Elizabethkingia meningoseptica, UniProt Q9KJX5); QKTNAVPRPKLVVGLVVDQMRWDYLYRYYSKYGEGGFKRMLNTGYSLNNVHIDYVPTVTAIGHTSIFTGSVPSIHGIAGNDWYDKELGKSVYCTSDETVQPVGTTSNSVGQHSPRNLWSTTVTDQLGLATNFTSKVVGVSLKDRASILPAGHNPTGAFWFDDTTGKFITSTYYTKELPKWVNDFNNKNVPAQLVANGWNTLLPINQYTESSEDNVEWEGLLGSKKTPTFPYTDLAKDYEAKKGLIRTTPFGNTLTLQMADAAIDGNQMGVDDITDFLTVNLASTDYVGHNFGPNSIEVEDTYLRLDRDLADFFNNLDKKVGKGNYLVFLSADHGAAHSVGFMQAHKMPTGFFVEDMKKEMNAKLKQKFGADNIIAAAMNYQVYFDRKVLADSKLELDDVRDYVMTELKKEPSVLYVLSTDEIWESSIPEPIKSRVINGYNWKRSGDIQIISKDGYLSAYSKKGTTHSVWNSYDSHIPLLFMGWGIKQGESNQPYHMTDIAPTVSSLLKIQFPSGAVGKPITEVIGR
N199V: 608 µM
T43V: 650 µM
D84G: 491 µM
N48G: 629 µM
N42G: 498 µM
K367V: 707 µM
E429G: 387 µM
F132G: 544 µM

Mixed results
CC(O)=C(C#N)C(=O)Nc1cc(Br)ccc1Br — inhibition (His6 tag; AlphaScreen counter screen; concentration not given): 22.2%

For quick reference, copied from above (set 3):
T43V: 650 µM
D84G: 491 µM
